Measured values from different studies.
Every numbered part comes from another study and shows a few of its results, in no order.
Sequence of UniProt P10721 (whole entry, looked up): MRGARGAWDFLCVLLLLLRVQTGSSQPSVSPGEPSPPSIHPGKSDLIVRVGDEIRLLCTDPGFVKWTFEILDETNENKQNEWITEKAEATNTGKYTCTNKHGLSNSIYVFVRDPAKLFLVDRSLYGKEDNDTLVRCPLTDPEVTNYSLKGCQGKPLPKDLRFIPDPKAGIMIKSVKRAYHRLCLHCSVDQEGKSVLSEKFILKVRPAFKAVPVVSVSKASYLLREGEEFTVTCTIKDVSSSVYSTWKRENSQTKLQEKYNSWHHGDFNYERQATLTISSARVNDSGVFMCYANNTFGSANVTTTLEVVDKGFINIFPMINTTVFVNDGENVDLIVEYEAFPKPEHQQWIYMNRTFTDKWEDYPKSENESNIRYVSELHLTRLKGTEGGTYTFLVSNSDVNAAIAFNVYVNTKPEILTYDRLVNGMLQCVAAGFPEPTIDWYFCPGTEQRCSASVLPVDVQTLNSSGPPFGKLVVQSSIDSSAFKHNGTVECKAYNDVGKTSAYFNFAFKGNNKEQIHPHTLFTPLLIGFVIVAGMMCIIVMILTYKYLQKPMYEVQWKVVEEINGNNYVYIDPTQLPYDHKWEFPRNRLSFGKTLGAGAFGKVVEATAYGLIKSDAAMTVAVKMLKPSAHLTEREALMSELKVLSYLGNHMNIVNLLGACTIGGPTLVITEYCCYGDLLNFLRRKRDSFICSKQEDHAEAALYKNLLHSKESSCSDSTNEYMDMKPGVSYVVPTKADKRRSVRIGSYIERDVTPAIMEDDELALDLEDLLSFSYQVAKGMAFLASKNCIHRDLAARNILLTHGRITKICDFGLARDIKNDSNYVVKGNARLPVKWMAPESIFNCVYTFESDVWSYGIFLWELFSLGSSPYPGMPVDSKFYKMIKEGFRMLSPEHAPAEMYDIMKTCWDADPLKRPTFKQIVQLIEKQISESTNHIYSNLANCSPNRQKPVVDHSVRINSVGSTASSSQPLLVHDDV
Sequence of UniProt Q99755 (whole entry, looked up): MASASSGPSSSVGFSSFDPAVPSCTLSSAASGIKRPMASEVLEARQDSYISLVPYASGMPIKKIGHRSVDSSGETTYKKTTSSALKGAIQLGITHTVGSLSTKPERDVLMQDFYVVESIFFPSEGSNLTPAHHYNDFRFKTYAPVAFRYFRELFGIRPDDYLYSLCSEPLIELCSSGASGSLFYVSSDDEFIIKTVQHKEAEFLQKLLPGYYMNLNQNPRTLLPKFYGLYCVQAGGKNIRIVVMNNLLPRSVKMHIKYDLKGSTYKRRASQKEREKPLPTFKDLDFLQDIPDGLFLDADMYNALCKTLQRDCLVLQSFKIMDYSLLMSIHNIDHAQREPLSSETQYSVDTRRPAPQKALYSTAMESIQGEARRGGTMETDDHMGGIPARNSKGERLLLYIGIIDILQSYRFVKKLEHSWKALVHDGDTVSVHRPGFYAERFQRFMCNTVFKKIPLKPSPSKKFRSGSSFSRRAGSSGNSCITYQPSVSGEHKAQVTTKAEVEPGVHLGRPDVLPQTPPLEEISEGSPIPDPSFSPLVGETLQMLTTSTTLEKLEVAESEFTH
Sequence of UniProt P37173 (whole entry, looked up): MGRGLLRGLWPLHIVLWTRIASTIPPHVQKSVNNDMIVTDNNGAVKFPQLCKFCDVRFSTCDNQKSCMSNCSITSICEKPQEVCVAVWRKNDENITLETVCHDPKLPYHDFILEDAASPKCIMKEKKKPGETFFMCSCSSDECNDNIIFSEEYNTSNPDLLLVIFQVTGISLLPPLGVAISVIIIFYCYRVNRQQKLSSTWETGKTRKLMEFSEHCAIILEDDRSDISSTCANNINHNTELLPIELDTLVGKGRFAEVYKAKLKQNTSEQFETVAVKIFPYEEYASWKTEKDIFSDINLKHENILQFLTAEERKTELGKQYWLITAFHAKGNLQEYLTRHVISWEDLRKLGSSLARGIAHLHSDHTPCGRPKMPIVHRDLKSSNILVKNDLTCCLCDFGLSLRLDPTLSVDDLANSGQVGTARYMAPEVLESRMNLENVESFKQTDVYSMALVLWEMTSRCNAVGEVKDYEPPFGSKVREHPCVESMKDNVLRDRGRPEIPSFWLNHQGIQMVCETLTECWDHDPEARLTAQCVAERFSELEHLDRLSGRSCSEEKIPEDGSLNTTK
Sequence of UniProt P08631 (whole entry, looked up): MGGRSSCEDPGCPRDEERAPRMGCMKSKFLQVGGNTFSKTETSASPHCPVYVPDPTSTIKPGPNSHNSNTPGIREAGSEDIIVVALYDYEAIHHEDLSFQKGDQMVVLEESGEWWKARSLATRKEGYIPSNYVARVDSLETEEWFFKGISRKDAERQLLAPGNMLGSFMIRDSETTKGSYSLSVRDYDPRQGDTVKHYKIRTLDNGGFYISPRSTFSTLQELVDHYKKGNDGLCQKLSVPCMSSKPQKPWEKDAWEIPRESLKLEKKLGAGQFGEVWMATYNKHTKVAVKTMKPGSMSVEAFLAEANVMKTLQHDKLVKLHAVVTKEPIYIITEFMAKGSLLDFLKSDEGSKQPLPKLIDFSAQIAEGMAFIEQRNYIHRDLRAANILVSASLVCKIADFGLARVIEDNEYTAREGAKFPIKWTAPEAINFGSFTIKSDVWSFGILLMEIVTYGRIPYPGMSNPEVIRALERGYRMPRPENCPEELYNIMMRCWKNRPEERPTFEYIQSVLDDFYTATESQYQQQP
Sequence of UniProt O75747 (whole entry, looked up): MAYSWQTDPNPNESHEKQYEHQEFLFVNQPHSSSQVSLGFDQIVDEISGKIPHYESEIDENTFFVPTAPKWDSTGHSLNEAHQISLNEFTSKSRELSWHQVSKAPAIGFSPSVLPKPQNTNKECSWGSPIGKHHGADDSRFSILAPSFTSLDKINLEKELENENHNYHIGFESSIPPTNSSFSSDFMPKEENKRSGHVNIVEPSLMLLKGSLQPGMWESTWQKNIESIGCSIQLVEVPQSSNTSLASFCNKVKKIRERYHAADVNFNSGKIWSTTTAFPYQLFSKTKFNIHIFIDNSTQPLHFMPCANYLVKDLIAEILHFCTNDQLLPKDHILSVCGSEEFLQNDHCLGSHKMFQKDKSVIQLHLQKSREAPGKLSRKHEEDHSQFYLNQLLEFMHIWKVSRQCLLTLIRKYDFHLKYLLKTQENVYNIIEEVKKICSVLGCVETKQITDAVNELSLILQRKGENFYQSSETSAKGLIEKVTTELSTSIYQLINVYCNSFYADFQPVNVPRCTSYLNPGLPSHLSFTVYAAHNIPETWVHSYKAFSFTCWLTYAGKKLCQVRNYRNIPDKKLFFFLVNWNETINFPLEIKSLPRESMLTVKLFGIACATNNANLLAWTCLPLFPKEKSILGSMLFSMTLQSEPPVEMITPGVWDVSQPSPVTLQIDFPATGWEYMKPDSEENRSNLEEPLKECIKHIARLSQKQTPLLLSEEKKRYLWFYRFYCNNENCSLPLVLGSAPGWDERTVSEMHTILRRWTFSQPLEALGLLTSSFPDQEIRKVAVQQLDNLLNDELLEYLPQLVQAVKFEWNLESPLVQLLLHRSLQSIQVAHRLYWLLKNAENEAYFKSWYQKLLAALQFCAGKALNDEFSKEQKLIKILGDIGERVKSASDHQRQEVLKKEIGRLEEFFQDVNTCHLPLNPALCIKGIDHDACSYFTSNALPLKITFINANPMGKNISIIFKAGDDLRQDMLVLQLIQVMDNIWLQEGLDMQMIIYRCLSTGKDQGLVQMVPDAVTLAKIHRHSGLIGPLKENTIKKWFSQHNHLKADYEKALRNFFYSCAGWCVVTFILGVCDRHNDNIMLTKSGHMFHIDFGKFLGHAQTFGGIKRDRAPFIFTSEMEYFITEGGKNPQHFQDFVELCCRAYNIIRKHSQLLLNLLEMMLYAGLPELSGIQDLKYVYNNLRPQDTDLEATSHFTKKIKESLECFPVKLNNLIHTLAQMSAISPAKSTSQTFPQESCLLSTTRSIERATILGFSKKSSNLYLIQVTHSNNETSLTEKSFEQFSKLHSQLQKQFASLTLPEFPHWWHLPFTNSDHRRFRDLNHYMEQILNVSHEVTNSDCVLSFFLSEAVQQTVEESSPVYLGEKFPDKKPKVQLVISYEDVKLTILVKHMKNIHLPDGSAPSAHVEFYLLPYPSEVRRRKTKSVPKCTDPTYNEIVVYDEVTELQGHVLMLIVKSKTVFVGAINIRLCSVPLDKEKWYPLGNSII
Sequence of UniProt P78356 (whole entry, looked up): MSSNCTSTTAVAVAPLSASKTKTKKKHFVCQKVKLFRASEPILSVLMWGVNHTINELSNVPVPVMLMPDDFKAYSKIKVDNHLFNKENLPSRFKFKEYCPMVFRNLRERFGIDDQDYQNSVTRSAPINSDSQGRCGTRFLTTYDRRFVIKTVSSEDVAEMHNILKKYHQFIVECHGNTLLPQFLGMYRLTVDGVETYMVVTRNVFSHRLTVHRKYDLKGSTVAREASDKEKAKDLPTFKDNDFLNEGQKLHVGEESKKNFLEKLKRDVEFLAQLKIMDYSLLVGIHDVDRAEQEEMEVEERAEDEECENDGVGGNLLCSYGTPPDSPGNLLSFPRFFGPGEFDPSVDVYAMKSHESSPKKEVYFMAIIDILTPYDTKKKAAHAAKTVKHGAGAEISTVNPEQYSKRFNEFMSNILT

Block 1
Cell line: mouse MPNST tumor cells
Technique: high-content immunofluorescence imaging
Refers to: nuclear SOX9
Tested at: 10 µM
Time: 12 h
Setting: mean of 2 replicates
Baseline: DMSO control
Direction: higher = more nuclear SOX9
SMILES	nuclear SOX9 intensity
CC(=O)OCC(=O)[C@@]1(O)[C@H](C)C[C@H]2[C@@H]3CCC4=CC(=O)C=C[C@]4(C)[C@@]3(F)[C@@H](O)C[C@@]21C	74.1 % of DMSO
O=C(N[C@H](CO)[C@H](O)c1ccc([N+](=O)[O-])cc1)C(Cl)Cl	97.5 % of DMSO
Cn1c(NC[C@@H](N)Cc2ccccc2)nc(-c2ccncc2)c(-c2ccc3ccccc3c2)c1=O	178 % of DMSO
CC1(C)CCC[C@]2(C)[C@@H](C=O)C(C=O)=CC[C@@H]12	98 % of DMSO
CC(C)c1cc(C(C)C)c(CC(=O)NS(=O)(=O)Oc2c(C(C)C)cccc2C(C)C)c(C(C)C)c1	103 % of DMSO

Block 2
Target: Tyrosine-protein kinase Yes (YES1, Homo sapiens, UniProt P07947)
Sequence of UniProt P07947 (whole entry, looked up): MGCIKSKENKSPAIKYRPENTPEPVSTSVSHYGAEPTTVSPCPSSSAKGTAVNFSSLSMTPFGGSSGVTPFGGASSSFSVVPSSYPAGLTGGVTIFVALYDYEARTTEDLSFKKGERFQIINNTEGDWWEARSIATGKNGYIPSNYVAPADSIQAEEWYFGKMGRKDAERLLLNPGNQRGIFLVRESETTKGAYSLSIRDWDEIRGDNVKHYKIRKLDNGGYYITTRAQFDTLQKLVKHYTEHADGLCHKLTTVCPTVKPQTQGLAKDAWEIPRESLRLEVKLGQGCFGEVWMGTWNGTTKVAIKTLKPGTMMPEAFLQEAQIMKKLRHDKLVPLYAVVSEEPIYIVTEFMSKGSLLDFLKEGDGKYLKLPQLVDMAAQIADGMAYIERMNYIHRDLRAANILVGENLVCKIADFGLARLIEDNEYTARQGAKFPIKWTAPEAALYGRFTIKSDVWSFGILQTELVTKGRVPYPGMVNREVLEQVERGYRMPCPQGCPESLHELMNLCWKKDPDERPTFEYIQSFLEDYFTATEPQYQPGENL
Read-out: enzyme activity
Mode: inhibitor
Tested at: 0.5 µM
Baseline: control
SMILES	remaining activity [%]
CC(C)N(CCC(=O)c1ccc2ccccc2c1)Cc1ccccc1	100
O=C(c1ccccc1)c1ccc(N2CCOCC2)cc1O	103
O=Nc1c(-c2c(O)[nH]c3ccccc23)[nH]c2ccccc12	45.1
O=C1NC(=O)/C(=C/c2ccc3c(c2)OC(F)(F)O3)S1	87.9
CCCCc1c(-c2ccc(O)cc2)[nH]c2nccnc12	46.5
N#C/C(=C(/N)SC1C=CC=CC1)c1cccc(C(O)c2ccncc2)c1 (centres unmarked)	97.2
CC(C)n1cnc2c(Nc3cccc(Cl)c3)nc(NCCO)nc21	33.7
CCN(CC)CCCCN1c2ccccc2Oc2ccc(Cl)cc21	88.5
O=c1c(-c2ccc(F)cc2)c(-c2ccncc2)[nH]n1-c1ccc(Cl)cc1	85.1
O=C1c2ccccc2-c2nc3nnnn3nc21	89.2
O=C(O)/C=C/c1cc(Br)c(Br)c(Br)c1Br	96.9

Block 3
Compound: Cn1cc(Cl)c2c(Oc3c(F)cc(Nc4cc(Cl)nc(N)n4)cc3F)ccnc21
Read-out: cell-free assay
Technique: competition with immobilised ligand
Tested at: 0.1 µM
target	remaining binding
KIT (Homo sapiens, UniProt P10721)	95%
PIP4K2B (Homo sapiens, UniProt P78356)	76%
PIK3C3 (Homo sapiens, UniProt Q8NEB9)	75%
PIP5K1C (Homo sapiens, UniProt O60331)	93%
NTRK2 (Homo sapiens, UniProt Q16620)	96%
BRAF (Homo sapiens, UniProt P15056)	100%
MAP2K5 (Homo sapiens, UniProt Q13163)	100%
PIK3C2G (Homo sapiens, UniProt O75747)	100%
HCK (Homo sapiens, UniProt P08631)	100%
PIP5K1A (Homo sapiens, UniProt Q99755)	70%
TIE1 (Homo sapiens, UniProt P35590)	100%
TGFBR2 (Homo sapiens, UniProt P37173)	90%

Single results of other studies
SMILES	target	technique	measurement	value
CC(C)(C)OC(=O)NCCOCCOCCOCCNC(=O)CCCCn1ccnc1Cn1ccc2ccc(CNCc3[nH]c4ccccc4c3C3NC(=O)c4ccc(O)cc43)cc21 (centres unmarked)	GTPase KRas (KRAS, Homo sapiens, UniProt P01116, G12C)	cell-based	IC50	4.8 µM

A few entries again (block 2):
SMILES	remaining activity [%]
O=C1NC(=O)/C(=C/c2ccc3c(c2)OC(F)(F)O3)S1	87.9
O=c1c(-c2ccc(F)cc2)c(-c2ccncc2)[nH]n1-c1ccc(Cl)cc1	85.1
CCN(CC)CCCCN1c2ccccc2Oc2ccc(Cl)cc21	88.5
